{"data": "Results gathered from unrelated publications", "cell line": "RXF 393", "note": "Lines come from different studies, so protocols differ. “And” joins repeats or separate records; there may be more than shown."}
{"SMILES": "CCN(CC)c1ccc(C=NNC(=O)CSc2nc3ccccc3c(=O)n2Cc2ccc(S(N)(=O)=O)cc2)c(O)c1", "assay": "NCI five-dose screen", "quantity": "TGI", "result": "> 100 µM"}
{"SMILES": "Cc1cc(=O)[nH]n1-c1nc(-c2ccc(Cl)cc2)c2c(NC(=O)c3ccccc3)nnc-2[nH]1", "assay": "SRB", "setting": "10 µM, NCI60 single-dose screen", "scale": "reference: untreated", "quantity": "cell growth", "result": "99.8%"}
{"SMILES": "CN1CCN(c2ccc3[nH]c(-c4ccc5[nH]c(-c6ccc(C(F)(F)F)cc6)nc5c4)nc3c2)CC1", "assay": "SRB", "setting": "10 µM, 48 h", "quantity": "growth percent", "result": "-14.3%"}
{"SMILES": "O=C1NC(=NCc2cccs2)S/C1=C\\c1ccc2ncccc2c1", "assay": "MTS", "setting": "NCI60 panel", "quantity": "IC50", "result": "> 10 µM"}
{"SMILES": "CCOc1ccc(-c2nc3cc(-c4nc5cc(N6CCN(C)CC6)ccc5[nH]4)ccc3[nH]2)cc1OCC", "assay": "SRB", "setting": "10 µM, 48 h", "quantity": "growth percent", "result": "-37.8%"}
{"SMILES": "O=C(Nc1nnc2n3c(=S)[nH][nH]c3nc(-c3ccc(Cl)cc3)c1-2)c1ccccc1", "assay": "SRB", "setting": "10 µM, NCI60 single-dose screen", "scale": "reference: untreated", "quantity": "cell growth", "result": "87.6%"}
{"SMILES": "CC(=O)O[C@H]1C(=O)[C@@]2(C)[C@H]([C@H](OC(=O)c3ccccc3)[C@]3(O)C[C@H](OC(=O)[C@H](O)[C@@H](NC(=O)c4ccccc4)c4ccccc4)C(C)=C1C3(C)C)[C@]1(OC(C)=O)CO[C@@H]1C[C@@H]2O", "assay": "sulforhodamine B", "test system": "Renal cancer", "setting": "NCI60 screen", "quantity": "TGI", "result": "0.5 µM"}
{"SMILES": "CCCN1CCN(c2ccc3[nH]c(-c4ccc5[nH]c(-c6ccc(C(F)(F)F)cc6)nc5c4)nc3c2)CC1", "assay": "SRB", "setting": "10 µM, 48 h", "quantity": "growth percent", "result": "-70.4%"}
{"SMILES": "C#C[C@@]1(O)[C@@H](CO)O[C@@H](n2ccc3c(N)ncnc32)[C@@H]1O", "assay": "SRB", "setting": "NCI-60 screen", "quantity": "TGI", "result": "4.6 µM"}
{"SMILES": "O=C1NCCc2[nH]c(-c3ccncc3)cc21", "assay": "MTS", "setting": "NCI60 panel", "quantity": "IC50", "result": "3.47 µM"}
{"SMILES": "Cc1cc(-c2ccccc2)n(-c2nc(-c3ccc(Cl)cc3)c3c(NC(=O)c4ccccc4)nnc-3[nH]2)n1", "assay": "SRB", "setting": "10 µM, NCI60 single-dose screen", "scale": "reference: untreated", "quantity": "cell growth", "result": "84.1%"}
{"SMILES": "CCCN1CCN(c2ccc3[nH]c(-c4ccc5[nH]c(-c6cc(OC)c(OC)c(OC)c6)nc5c4)nc3c2)CC1", "assay": "SRB", "setting": "10 µM, 48 h", "quantity": "growth percent", "result": "15.6%"}
{"SMILES": "NNc1nc(-c2ccc(Cl)cc2)c2c(NC(=O)c3ccccc3)nnc-2[nH]1", "assay": "SRB", "setting": "10 µM, NCI60 single-dose screen", "scale": "reference: untreated", "quantity": "cell growth", "result": "99.7%"}
{"SMILES": "C#C[C@@]1(O)[C@@H](CO)O[C@@H](n2cc(I)c3c(N)ncnc32)[C@@H]1O", "assay": "SRB", "setting": "NCI-60 screen", "quantity": "TGI", "result": "2.01 µM and 2.54 µM"}
{"note": "For quick reference, copied from above:"}
{"SMILES": "NNc1nc(-c2ccc(Cl)cc2)c2c(NC(=O)c3ccccc3)nnc-2[nH]1", "assay": "SRB", "setting": "10 µM, NCI60 single-dose screen", "scale": "reference: untreated", "quantity": "cell growth", "result": "99.7%"}
{"SMILES": "C#C[C@@]1(O)[C@@H](CO)O[C@@H](n2cc(I)c3c(N)ncnc32)[C@@H]1O", "assay": "SRB", "setting": "NCI-60 screen", "quantity": "TGI", "result": "2.01 µM and 2.54 µM"}
